{"data": "Results collected from several papers", "note": "Lines come from different studies, so protocols differ."}
{"SMILES": "Cc1cc(NC2CCN(C(=O)OC3CCN(C(=O)/C=C/CN(C)C)C3)CC2)n2ncc(C(C)C)c2n1 (stereo not shown)", "assay": "CTCAE v4.0, measured: Dyspnea", "test system": "patients with advanced solid tumours", "setting": "oral, dose not given, all schedules, grade 3 or higher", "quantity": "patients with TEAE", "value": "6%"}
{"SMILES": "NC(=O)N1c2ccccc2C=Cc2ccccc21", "test system": "male patients", "setting": "oral, dose not given, on-treatment adverse events", "quantity": "patients with eye pain", "value": "7%"}
{"SMILES": "O=C(Nc1nc2cccc(-c3ccc(CN4CCS(=O)(=O)CC4)cc3)n2n1)C1CC1", "test system": "rheumatoid arthritis patients", "setting": "oral, 100 mg twice daily, 4 weeks, TEAE regardless of relatedness", "quantity": "patients with Hypertension", "value": "0%"}
{"SMILES": "C[C@@H](Nc1cc(F)cc(F)c1)c1cc(C(=O)N(C)C)cc2c(=O)cc(N3CCOCC3)oc12", "assay": "CTCAE v4, measured: SIRS", "test system": "patients with advanced solid tumours", "setting": "oral, dose not given, phase I dose finding", "quantity": "patients discontinuing for AE", "value": "0%"}
{"SMILES": "COc1ccc([C@@H](O)c2cc(-c3ncnc4cc(N5CCOCC5)ccc34)c(F)cc2Cl)nn1", "test system": "locally advanced rectal cancer patients", "setting": "150 mg, drug-related adverse events, with: capecitabine and radiotherapy", "quantity": "patients with diarrhea", "value": "33%"}
{"SMILES": "CCO[C@H]1CCN(Cc2c(OC)cc(C)c3[nH]ccc23)[C@H](c2ccc(C(=O)O)cc2)C1", "assay": "measured: Flatulence", "test system": "PNH patients, active haemolysis", "setting": "oral, 200 mg twice daily, extension phase", "quantity": "patients with adverse event", "value": "0%"}
{"SMILES": "Cc1cc(-c2nnc(N)nc2-c2ccc(F)cc2)cc(Cl)n1", "assay": "measured: Hyperthyroidism", "test system": "IO-naive colorectal cancer patients", "setting": "oral, dose not given, treatment-related, grade 2", "quantity": "patients with immune-mediated AE", "value": "0%"}
{"SMILES": "C=CC(=O)NC1CCN(c2ncc3ncnc(Nc4ccc(Oc5ccc6c(c5)ncn6C)c(C)c4)c3n2)CC1", "test system": "male patients", "setting": "oral, dose not given, on-treatment adverse events", "quantity": "patients with Hyperhidrosis", "value": "0%"}
{"SMILES": "C[C@@H](c1ccc2nccn2c1)n1nnc2ncc(-c3cnn(C)c3)nc21", "assay": "measured: treatment-related grade ≥3 Pneumonitis", "test system": "EGFR-mutant MET-altered NSCLC", "setting": "oral, dose not given, all", "quantity": "patients with adverse events", "value": "1%"}
{"SMILES": "CCOc1c([C@H](C)n2nc(C)c3c(N)ncnc32)cc(Cl)c(F)c1[C@@H]1CNC(=O)C1", "assay": "measured: QRS ≤100 ms", "test system": "previously treated B-cell malignancy", "setting": "oral, 15 mg once daily, baseline below thresholds", "quantity": "patients", "value": "100%"}
{"SMILES": "C=CC(=O)Nc1cc(Nc2nccc(-c3cn(C)c4ccccc34)n2)c(OC)cc1N(C)CCN(C)C", "assay": "measured: Pain grade ≥3", "test system": "EGFR-mutant MET-altered NSCLC", "setting": "oral, study", "quantity": "patients with treatment-related AEs", "value": "0%"}
{"SMILES": "CNC(=O)c1cc(Oc2ccc(NC(=O)Nc3cc(C(C)(C)C)nn3-c3ccc4ncccc4c3)c(F)c2)ccn1", "test system": "patients", "setting": "oral, dose not given, cycles 1 and 2, High Cmax subgroup", "quantity": "patients with grade 1 cardiac disorders", "value": "11%"}
{"SMILES": "CNC(=O)c1ccc(-c2cnc3ncc(Cc4ccc5ncccc5c4)n3n2)cc1F", "assay": "measured: Asthenia", "test system": "cancer patients", "setting": "oral, dose not given, dose escalation, grade 3-4", "quantity": "patients with adverse event", "value": "3%"}
{"SMILES": "COc1cc(Nc2ncc3c(n2)-c2ccc(Cl)cc2C(c2c(F)cccc2OC)=NC3)ccc1C(=O)O", "assay": "measured: Pruritus, grade 1", "test system": "cancer patients, phase 1/2", "setting": "oral, dose not given, with: pembrolizumab", "quantity": "patients with adverse event", "value": "17%"}
{"SMILES": "CC(C)C[C@H](NC(=O)CNC(=O)c1cc(Cl)ccc1Cl)B(O)O", "assay": "measured: Dysgeusia, all grades", "test system": "newly diagnosed multiple myeloma patients", "setting": "oral, dose not given, maintenance phase, new onset, cycle 17 or later", "quantity": "patients with adverse event", "value": "0%"}
{"SMILES": "FC(F)(F)c1ccc(CNc2ccc(Cc3c[nH]c4ncc(Cl)cc34)cn2)cn1", "assay": "measured: at least 1 adverse event", "test system": "non-TGCT solid tumour patients", "setting": "oral, 1000 mg/day, all grades", "quantity": "patients with treatment-related adverse event", "value": "87%"}
{"note": "Excerpt of the above:"}
{"SMILES": "Cc1cc(NC2CCN(C(=O)OC3CCN(C(=O)/C=C/CN(C)C)C3)CC2)n2ncc(C(C)C)c2n1 (stereo not shown)", "assay": "CTCAE v4.0, measured: Dyspnea", "test system": "patients with advanced solid tumours", "setting": "oral, dose not given, all schedules, grade 3 or higher", "quantity": "patients with TEAE", "value": "6%"}
